{"data": "Measured values from different studies", "Hypoxanthine-guanine-xanthine phosphoribosyltransferase": "Hypoxanthine-guanine-xanthine phosphoribosyltransferase (Plasmodium falciparum, UniProt P20035)", "CASP1": "Caspase-1 (CASP1, Homo sapiens, UniProt P29466)", "Beta-lactamase CTX-M-14": "Beta-lactamase CTX-M-14 (Escherichia coli, UniProt Q9L5C7)", "MAPK8": "Mitogen-activated protein kinase 8 (MAPK8, Homo sapiens, UniProt P45983)", "XDH": "Xanthine dehydrogenase/oxidase (XDH, Bos taurus, UniProt P80457)", "5-hydroxytryptamine receptor 2A": "5-hydroxytryptamine receptor 2A (Rattus norvegicus, UniProt P14842)", "CHRM4": "Muscarinic acetylcholine receptor M4 (CHRM4, Homo sapiens, UniProt P08173)", "FUT6": "4-galactosyl-N-acetylglucosaminide 3-alpha-L-fucosyltransferase FUT6 (FUT6, Homo sapiens, UniProt P51993)", "TACR1": "Substance-P receptor (TACR1, Homo sapiens, UniProt P25103)", "Htr1a": "5-hydroxytryptamine receptor 1A (Htr1a, Rattus norvegicus, UniProt P19327)", "BACE2": "Beta-secretase 2 (BACE2, Homo sapiens, UniProt Q9Y5Z0)", "FAP": "Prolyl endopeptidase FAP (FAP, Homo sapiens, UniProt Q12884)", "note": "± gives the spread as reported.", "sequence of UniProt P14842 (whole entry, looked up)": "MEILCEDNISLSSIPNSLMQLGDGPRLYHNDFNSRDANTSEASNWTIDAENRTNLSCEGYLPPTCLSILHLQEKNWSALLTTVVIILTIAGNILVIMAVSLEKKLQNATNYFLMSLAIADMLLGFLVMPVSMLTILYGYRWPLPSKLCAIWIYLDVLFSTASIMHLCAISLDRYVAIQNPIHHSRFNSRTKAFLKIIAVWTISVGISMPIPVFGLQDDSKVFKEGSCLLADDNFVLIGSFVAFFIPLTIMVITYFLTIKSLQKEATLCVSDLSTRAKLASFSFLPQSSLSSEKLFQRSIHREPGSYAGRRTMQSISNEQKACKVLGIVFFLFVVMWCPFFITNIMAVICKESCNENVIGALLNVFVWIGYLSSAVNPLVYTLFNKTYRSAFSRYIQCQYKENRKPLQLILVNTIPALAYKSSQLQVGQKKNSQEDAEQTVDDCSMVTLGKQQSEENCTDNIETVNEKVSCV", "sequence of UniProt P08173 (whole entry, looked up)": "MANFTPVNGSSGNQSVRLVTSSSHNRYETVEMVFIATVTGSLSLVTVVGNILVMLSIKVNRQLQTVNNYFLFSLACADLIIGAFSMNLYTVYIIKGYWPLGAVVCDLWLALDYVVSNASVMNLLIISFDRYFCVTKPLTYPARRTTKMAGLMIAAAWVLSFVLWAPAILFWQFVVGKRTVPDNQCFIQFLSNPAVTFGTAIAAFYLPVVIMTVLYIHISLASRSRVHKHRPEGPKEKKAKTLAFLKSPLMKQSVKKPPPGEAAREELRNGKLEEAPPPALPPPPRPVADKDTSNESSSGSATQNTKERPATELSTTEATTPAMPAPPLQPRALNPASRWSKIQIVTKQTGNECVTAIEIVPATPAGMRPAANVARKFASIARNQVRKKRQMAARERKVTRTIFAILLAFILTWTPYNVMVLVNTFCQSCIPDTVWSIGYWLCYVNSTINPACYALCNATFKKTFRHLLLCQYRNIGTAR", "sequence of UniProt P51993 (whole entry, looked up)": "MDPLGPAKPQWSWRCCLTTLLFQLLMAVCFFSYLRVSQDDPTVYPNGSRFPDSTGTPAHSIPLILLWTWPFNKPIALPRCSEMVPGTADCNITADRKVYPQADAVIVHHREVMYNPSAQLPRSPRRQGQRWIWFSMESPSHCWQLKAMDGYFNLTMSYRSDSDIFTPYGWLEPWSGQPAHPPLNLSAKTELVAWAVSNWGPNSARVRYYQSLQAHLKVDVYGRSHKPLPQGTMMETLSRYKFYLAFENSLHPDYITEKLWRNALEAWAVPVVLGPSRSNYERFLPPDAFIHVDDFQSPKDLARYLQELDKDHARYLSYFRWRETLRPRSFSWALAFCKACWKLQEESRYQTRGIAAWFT", "sequence of UniProt P25103 (whole entry, looked up)": "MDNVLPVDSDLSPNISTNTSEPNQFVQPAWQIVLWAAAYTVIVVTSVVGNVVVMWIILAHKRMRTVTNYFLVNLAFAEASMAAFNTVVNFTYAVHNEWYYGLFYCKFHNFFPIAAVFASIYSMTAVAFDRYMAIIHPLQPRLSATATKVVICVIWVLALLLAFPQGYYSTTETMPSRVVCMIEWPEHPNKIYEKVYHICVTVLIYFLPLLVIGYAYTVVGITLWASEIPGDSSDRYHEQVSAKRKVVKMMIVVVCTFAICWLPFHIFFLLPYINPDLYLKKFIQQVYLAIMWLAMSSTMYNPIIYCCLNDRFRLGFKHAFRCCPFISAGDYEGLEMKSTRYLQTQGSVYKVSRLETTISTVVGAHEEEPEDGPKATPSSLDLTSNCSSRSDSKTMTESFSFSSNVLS", "sequence of UniProt Q12884 (whole entry, looked up)": "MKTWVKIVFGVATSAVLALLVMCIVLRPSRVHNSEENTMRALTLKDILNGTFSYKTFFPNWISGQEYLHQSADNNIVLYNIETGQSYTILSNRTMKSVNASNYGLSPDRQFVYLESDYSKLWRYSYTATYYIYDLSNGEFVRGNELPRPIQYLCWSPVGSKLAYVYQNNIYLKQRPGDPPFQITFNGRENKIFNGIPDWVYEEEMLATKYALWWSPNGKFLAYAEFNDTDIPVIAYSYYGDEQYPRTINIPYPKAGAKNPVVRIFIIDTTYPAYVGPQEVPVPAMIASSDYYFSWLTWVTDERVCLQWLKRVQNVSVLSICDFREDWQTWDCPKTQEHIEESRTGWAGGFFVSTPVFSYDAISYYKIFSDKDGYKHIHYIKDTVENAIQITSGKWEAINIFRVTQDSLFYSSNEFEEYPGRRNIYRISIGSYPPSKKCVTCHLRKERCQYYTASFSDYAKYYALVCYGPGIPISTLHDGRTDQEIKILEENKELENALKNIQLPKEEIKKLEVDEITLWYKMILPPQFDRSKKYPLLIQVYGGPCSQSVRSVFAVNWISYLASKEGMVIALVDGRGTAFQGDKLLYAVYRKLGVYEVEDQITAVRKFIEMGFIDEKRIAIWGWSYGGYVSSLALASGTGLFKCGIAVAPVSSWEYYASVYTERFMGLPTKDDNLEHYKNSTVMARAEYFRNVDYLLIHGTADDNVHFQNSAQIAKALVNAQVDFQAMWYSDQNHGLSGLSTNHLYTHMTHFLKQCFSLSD", "sequence of UniProt P19327 (whole entry, looked up)": "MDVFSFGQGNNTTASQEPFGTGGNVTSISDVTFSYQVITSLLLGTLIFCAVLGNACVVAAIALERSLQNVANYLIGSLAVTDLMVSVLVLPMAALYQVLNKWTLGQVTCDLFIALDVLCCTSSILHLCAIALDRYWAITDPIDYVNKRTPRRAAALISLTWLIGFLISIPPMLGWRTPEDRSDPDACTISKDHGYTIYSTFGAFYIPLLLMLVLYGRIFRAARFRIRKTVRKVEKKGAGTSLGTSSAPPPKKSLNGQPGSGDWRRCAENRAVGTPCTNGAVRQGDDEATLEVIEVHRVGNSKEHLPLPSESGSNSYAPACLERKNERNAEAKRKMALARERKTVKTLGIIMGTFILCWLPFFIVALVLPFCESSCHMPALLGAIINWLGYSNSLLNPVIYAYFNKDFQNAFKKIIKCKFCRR", "sequence of UniProt P80457 (whole entry, looked up)": "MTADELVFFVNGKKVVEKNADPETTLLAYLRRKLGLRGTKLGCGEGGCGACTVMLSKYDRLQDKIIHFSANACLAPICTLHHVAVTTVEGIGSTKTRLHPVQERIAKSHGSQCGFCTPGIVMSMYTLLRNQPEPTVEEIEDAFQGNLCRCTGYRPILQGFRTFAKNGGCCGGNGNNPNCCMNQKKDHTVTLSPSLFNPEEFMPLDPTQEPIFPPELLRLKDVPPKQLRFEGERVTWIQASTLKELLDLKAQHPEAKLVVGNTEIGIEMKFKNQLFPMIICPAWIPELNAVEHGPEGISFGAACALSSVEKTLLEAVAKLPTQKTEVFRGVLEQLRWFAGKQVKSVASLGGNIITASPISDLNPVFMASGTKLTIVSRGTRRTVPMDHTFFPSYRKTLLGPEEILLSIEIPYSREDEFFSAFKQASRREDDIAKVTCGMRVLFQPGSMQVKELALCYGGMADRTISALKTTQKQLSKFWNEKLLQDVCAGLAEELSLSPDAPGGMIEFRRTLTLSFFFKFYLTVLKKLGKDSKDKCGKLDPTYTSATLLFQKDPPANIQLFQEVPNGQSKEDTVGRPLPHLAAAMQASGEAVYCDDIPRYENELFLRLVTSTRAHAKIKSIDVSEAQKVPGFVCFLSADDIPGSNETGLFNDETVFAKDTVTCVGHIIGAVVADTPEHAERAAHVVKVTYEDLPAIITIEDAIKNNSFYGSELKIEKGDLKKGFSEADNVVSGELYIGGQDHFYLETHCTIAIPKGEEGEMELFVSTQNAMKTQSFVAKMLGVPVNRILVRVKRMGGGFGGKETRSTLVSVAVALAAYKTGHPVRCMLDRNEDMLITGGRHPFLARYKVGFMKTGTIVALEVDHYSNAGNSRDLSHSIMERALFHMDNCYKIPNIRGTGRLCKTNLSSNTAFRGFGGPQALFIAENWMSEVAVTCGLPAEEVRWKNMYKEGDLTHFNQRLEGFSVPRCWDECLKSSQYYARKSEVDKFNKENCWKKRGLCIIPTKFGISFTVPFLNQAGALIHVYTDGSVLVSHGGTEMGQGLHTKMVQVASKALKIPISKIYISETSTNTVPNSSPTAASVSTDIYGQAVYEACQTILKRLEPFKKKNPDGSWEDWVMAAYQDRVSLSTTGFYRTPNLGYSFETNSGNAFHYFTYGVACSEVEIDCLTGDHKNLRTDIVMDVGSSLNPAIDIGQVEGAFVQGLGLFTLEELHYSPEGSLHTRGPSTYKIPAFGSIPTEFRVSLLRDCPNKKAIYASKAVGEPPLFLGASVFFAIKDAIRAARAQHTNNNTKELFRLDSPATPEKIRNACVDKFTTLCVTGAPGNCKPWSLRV", "sequence of UniProt P20035 (whole entry, looked up)": "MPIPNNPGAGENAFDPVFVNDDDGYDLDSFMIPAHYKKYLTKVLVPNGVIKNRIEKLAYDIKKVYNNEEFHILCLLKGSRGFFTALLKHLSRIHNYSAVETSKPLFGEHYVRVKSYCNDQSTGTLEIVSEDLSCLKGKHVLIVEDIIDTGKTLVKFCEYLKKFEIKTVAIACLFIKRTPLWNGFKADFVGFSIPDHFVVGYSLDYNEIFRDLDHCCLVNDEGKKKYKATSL", "sequence of UniProt Q9Y5Z0 (whole entry, looked up)": "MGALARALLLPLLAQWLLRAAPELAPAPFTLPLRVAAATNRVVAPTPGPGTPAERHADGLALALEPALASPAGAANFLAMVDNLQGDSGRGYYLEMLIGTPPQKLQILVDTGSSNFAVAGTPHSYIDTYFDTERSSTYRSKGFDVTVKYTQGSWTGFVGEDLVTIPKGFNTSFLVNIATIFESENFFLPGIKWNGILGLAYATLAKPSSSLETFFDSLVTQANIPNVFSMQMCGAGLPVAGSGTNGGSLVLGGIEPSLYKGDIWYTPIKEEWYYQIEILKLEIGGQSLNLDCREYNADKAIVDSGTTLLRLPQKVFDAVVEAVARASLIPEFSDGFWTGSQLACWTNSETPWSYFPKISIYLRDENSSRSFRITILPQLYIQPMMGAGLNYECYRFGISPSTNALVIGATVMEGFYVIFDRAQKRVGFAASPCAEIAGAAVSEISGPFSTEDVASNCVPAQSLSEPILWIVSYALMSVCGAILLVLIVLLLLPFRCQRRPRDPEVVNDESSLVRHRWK"}
{"Compound": "O=c1[nH]cnc2c(CN[C@H](CO)CCP(=O)(O)O)c[nH]c12", "target": "Hypoxanthine-guanine-xanthine phosphoribosyltransferase", "assay": "enzyme activity, inhibitor", "conditions": "pH 7.4", "Ki [nM]": 0.65}
{"Compound": "CC(=O)N[C@@H](Cc1c[nH]c2ccccc12)C(=O)N[C@@H](CC(=O)O)C(=O)N[C@@H](CCCNC(=N)N)C(=O)N[C@@H](C)C(=O)N[C@H](C=O)CC(=O)O", "target": "CASP1", "assay": "enzyme activity, inhibitor, fluorescence", "conditions": "pH 7", "Ki [nM]": 331}
{"Compound": "O=C(Nc1cccc(-c2nn[nH]n2)c1)c1cc(-n2cnnn2)cc(C(F)(F)F)c1", "target": "Beta-lactamase CTX-M-14", "assay": "enzyme activity, inhibitor, absorbance", "conditions": "pH 7", "Ki [nM]": 29700}
{"Compound": "COC(=O)C1(CCCCl)C=C(C(=O)OC(C)(C)C)C(=O)CC1 (centres unmarked)", "target": "MAPK8", "assay": "ligand displacement, FP", "Ki [nM]": 47600}
{"Compound": "COc1cc(/C=C/c2cc(O)cc(O)c2)ccc1O", "target": "XDH", "assay": "superoxide generation, inhibitor", "conditions": "pH 10.0, 25 °C, together with: xanthine", "Ki [nM]": "36000 ± 3000"}
{"Compound": "Cc1cc(OCCCN2CCN(c3cccc4sccc34)CC2)ccc1CN1CCCC1", "target": "5-hydroxytryptamine receptor 2A", "assay": "cell-free assay", "Ki [nM]": 276}
{"Compound": "O=C(Nc1cccc(-c2nn[nH]n2)c1)c1cc(-c2cccnc2)cc(C(F)(F)F)c1", "target": "Beta-lactamase CTX-M-14", "assay": "enzyme activity, inhibitor, absorbance", "conditions": "pH 7", "Ki [nM]": 29300}
{"Compound": "CC(C)Oc1cccc(NC(=O)CCCN2C(=O)c3ccccc3C2=O)c1", "target": "Indole-3-acetic acid-amido synthetase GH3.17 (GH3.17, Arabidopsis thaliana, UniProt Q9FZ87)", "assay": "IAA-Glu formation, inhibitor", "conditions": "together with: IAA substrate", "Ki [nM]": 0.34}
{"Compound": "O=C1Nc2ccccc2N(C(=O)CN2CCC(CCCCN3CCN(CCOC(=O)C4c5ccccc5Oc5ccccc54)CC3)CC2)c2ccccc21", "target": "CHRM4", "assay": "ligand displacement, radioligand", "Ki [nM]": 10.2}
{"Compound": "CNc1ccccc1C(=O)O[C@H]1[C@@H](O)[C@H](n2ccc(N)nc2=O)O[C@@H]1COP(=O)(O)OP(=O)(O)O", "target": "Adcy2/ADCY5, C1/C2 domains (Rattus norvegicus, UniProt P26769+P30803)", "assay": "enzyme activity, inhibitor", "conditions": "together with: 10 mM MnCl2, 100 µM forskolin, Gsα-GTPγS", "Ki [nM]": "140 ± 22"}
{"Compound": "CC(=O)N[C@@H](CC(=O)O)C(=O)N[C@H](C(=O)N1CCC[C@H]1C(=O)N[C@H](C=O)CC(=O)O)C(C)C", "target": "CASP1", "assay": "enzyme activity, inhibitor, fluorescence", "conditions": "pH 7", "Ki [nM]": 70.8}
{"Compound": "Nc1nc2c(ncn2[C@@H]2O[C@H](COP(=O)(O)OP(=O)(O)O[C@H]3O[C@@H](CNC(=O)C(c4ccccc4)c4ccccc4)[C@@H](O)[C@@H](O)[C@@H]3F)[C@@H](O)[C@H]2O)c(=O)[nH]1", "target": "FUT6", "assay": "enzyme activity, inhibitor", "Ki [nM]": 8000}
{"Compound": "CCC(=O)NCc1cc(C(=O)NCCN2CCN(CCCCC3CCN(CC(=O)N4c5ccccc5NC(=O)c5ccccc54)CC3)CC2)cc(C(=O)NCCN2CCN(CCOC(=O)C3c4ccccc4Oc4ccccc43)CC2)c1", "target": "CHRM4", "assay": "ligand displacement, radioligand", "Ki [nM]": 5.13}
{"Compound": "COc1cc(CN2CCCC2)ccc1OCCN1CCN(c2cccc3sccc23)CC1", "target": "5-hydroxytryptamine receptor 2A", "assay": "cell-free assay", "Ki [nM]": 157}
{"Compound": "CC(=O)NCC1OC(OP(=O)(O)OP(=O)(O)OCC2OC(n3cnc4c(=O)[nH]c(N)nc43)C(O)C2O)C(F)C(O)C1O (centres unmarked)", "target": "FUT6", "assay": "enzyme activity, inhibitor", "Ki [nM]": 13500}
{"Compound": "CCCCCCCCCCCCCC[C@@H](O)[C@@H](O)[C@H](CO[C@H]1O[C@H](CO)[C@H](O)[C@H](O)[C@H]1O)NC(=O)CCCCCCc1ccccc1", "target": "Cd1d1 (Mus musculus, UniProt P11609)", "assay": "competitive binding on microarray", "conditions": "together with: surface-printed ligand", "Ki [nM]": "1700 ± 1100"}
{"Compound": "Nc1nc2c(ncn2[C@@H]2O[C@H](COP(=O)(O)OP(=O)(O)O[C@H]3O[C@@H](CNC(=O)c4ccc(-c5ccccc5)cc4)[C@@H](O)[C@@H](O)[C@@H]3F)[C@@H](O)[C@H]2O)c(=O)[nH]1", "target": "FUT9 (Homo sapiens, UniProt Q9Y231)", "assay": "enzyme activity, inhibitor", "Ki [nM]": 630000}
{"Compound": "Cc1ccccc1-c1cc(N2CCN(C(=O)[C@@H](N)CCCNC(=N)N)CC2)ccc1N(C)C(=O)C(C)(C)c1cc(C(F)(F)F)cc(C(F)(F)F)c1", "target": "TACR1", "assay": "cell-free assay, BRET", "conditions": "pH 6", "Ki [nM]": 25.7}
{"Compound": "CCC(=O)NC1CN(CCCCC2CCN(CC(=O)N3c4ccccc4NC(=O)c4ccccc43)CC2)CCN(CCCOc2nsnc2C2=CCCN(C)C2)C1 (centres unmarked)", "target": "CHRM4", "assay": "ligand displacement, radioligand", "Ki [nM]": 5.75}
{"Compound": "Nc1nc2c(ncn2[C@@H]2O[C@H](COP(=O)(O)OP(=O)(O)O[C@H]3O[C@@H](CNC(=O)CCCc4ccccc4)[C@@H](O)[C@@H](O)[C@@H]3F)[C@@H](O)[C@H]2O)c(=O)[nH]1", "target": "FUT6", "assay": "enzyme activity, inhibitor", "Ki [nM]": 9700}
{"Compound": "O=C(Nc1cccc(-c2nn[nH]n2)c1)c1cc(-c2cccs2)cc(C(F)(F)F)c1", "target": "Beta-lactamase CTX-M-14", "assay": "enzyme activity, inhibitor, absorbance", "conditions": "pH 7", "Ki [nM]": 27300}
{"Compound": "COc1ccc(/C=C/c2cc(O)cc(O)c2)cc1O", "target": "XDH", "assay": "superoxide generation, inhibitor", "conditions": "pH 10.0, 25 °C, together with: xanthine", "Ki [nM]": "2400 ± 200"}
{"Compound": "Cc1ccccc1-c1cc(N2CCN(Cc3ccccc3)CC2)ccc1N(C)C(=O)C(C)(C)c1cc(C(F)(F)F)cc(C(F)(F)F)c1", "target": "TACR1", "assay": "cell-free assay", "conditions": "pH 7.4", "Ki [nM]": 110}
{"Compound": "Cc1cc(CN2CCCC2)ccc1OCCCN1CCN(c2cccc3sccc23)CC1", "target": "Htr1a", "assay": "cell-free assay, radioligand", "Ki [nM]": 155}
{"Compound": "CN(C)CCNC(=O)c1cccc2c(NCCCCc3c(N)nc(N)nc3N)c3ccccc3nc12", "target": "Muscleblind-like protein 1, with (CCUG)6 RNA (Homo sapiens, UniProt Q9NR56)", "assay": "MBNL1-RNA binding, gel mobility shift", "conditions": "no tRNA, together with: (CCUG)6 RNA, 350 nM MBNL1", "Ki [nM]": "2200 ± 300"}
{"Compound": "CC(C)CNC(=O)[C@@H](NC[C@@H](O)[C@H](Cc1ccccc1)NC(=O)c1cc(C(=O)N(C)[C@H](C)c2ccccc2)cc(N(C)S(C)(=O)=O)c1)[C@H](C)O", "target": "BACE2", "Ki [nM]": "80.5 ± 4.7"}
{"Compound": "CC(C)C[C@H](NC(=O)[C@H](CCCCN)NC(=O)[C@H](CCCCN)NC(=O)[C@H](C)NC(=O)[C@H](CCCCN)NC(=O)[C@H](CCCCN)NC(=O)[C@@H]1CCCN1C(=O)[C@H](C)NC(=O)[C@H](CCCCN)NC(=O)[C@@H]1CCCN1)C(=O)O", "target": "Cyclin-dependent kinase 5, with p25 (CDK5, Homo sapiens, UniProt Q00535)", "assay": "inhibitor", "conditions": "0.2 mM Mg2+, together with: ATP varied", "Ki [nM]": "600000 ± 300000"}
{"Compound": "CC(=O)N[C@@H](CCCNC(=N)N)C(=O)NCCOCCOCC(=O)N[C@H](C)C(=O)N1CCC[C@H]1B(O)O", "target": "FAP", "assay": "inhibitor, fluorogenic substrate", "conditions": "together with: Tic-Pro-AFC", "Ki [nM]": "~5"}
{"Compound": "Nc1nc2c(CNCCCP(=O)(O)O)c[nH]c2c(=O)[nH]1", "target": "Hypoxanthine-guanine-xanthine phosphoribosyltransferase", "assay": "enzyme activity, inhibitor", "conditions": "pH 7.4", "Ki [nM]": 107}
{"Compound": "COC(=O)[C@@]1(Cc2ccccc2)C=C(C(=O)OC(C)(C)C)C(=O)CC1", "target": "MAPK8", "assay": "ligand displacement, FP", "Ki [nM]": 1800}
{"Compound": "O=C(Nc1cccc(-c2nn[nH]n2)c1)c1cc(-c2ccoc2)cc(C(F)(F)F)c1", "target": "Beta-lactamase CTX-M-14", "assay": "enzyme activity, inhibitor, absorbance", "conditions": "pH 7", "Ki [nM]": 17400}
{"Compound": "C[C@H](CCC(=O)O)[C@H]1CC[C@H]2[C@@H]3[C@@H](OC(=O)c4ccccc4)C[C@H]4C[C@H](O)CC[C@]4(C)[C@H]3CC[C@]12C", "target": "SLC10A1 (Homo sapiens, UniProt Q14973)", "assay": "transporter uptake, inhibitor, radiometric", "Ki [nM]": 24400}
{"Compound": "CN1CCN(Cc2ccc(OCCCN3CCN(c4cccc5sccc45)CC3)cc2)CC1", "target": "Htr1a", "assay": "cell-free assay, radioligand", "Ki [nM]": 109}
{"Compound": "CC[C@H](C)[C@H](NC(=O)[C@H](CCC(N)=O)NC(=O)[C@H](CCC(=O)O)NC(=O)[C@H](CCC(=O)O)NC(=O)[C@H](CCCCN)NC(=O)[C@@H]1CCCN1C(=O)[C@H](CC(C)C)NC(=O)[C@H](CO)NC(=O)[C@H](CO)NC(=O)[C@H](CC(C)C)NC(=O)[C@@H](NC(=O)[C@H](C)NC(=O)[C@H](CO)NC(=O)[C@H](CCCNC(=N)N)NC(=O)CNC(=O)CNC(=O)[C@@H](N)CCCNC(=N)N)C(C)C)C(=O)NCC(N)=O", "target": "MC4R (Homo sapiens, UniProt P32245)", "test system": "HEK-293T transfected", "conditions": "2 h, 37 °C, together with: Eu-NDP-MSH", "Ki [nM]": "> 5000"}
{"Compound": "CCCCOc1ccc(C(=O)OCC[N+]2(C)CC=CCC2)cc1 (centres unmarked)", "target": "CHRM4", "assay": "ligand displacement, radioligand", "conditions": "cell membranes", "Ki [nM]": 7760}
{"Compound": "Cc1cc(OCCCN2CCN(c3cccc4sccc34)CC2)ccc1CN1CCCCC1", "target": "5-hydroxytryptamine receptor 2A", "assay": "cell-free assay", "Ki [nM]": 286}
{"Compound": "CCC[C@H](O)[C@H](NC[C@@H](O)[C@H](Cc1ccccc1)NC(=O)c1cc(C)cc(C(=O)N(C)[C@H](C)c2ccccc2)c1)C(=O)NCC(C)C", "target": "BACE2", "Ki [nM]": "0.038 ± 0.014"}
{"Compound": "N[C@@H](Cc1ccccc1)C(=O)NCC(=O)NCCOCCOCC(=O)NCC(=O)N1CCCC1", "target": "FAP", "assay": "enzyme activity, inhibitor, fluorescence", "conditions": "pH 7.5", "Ki [nM]": 703000}
{"note": "For quick reference, copied from above:"}
{"Compound": "C[C@H](CCC(=O)O)[C@H]1CC[C@H]2[C@@H]3[C@@H](OC(=O)c4ccccc4)C[C@H]4C[C@H](O)CC[C@]4(C)[C@H]3CC[C@]12C", "target": "SLC10A1 (Homo sapiens, UniProt Q14973)", "assay": "transporter uptake, inhibitor, radiometric", "Ki [nM]": 24400}
{"Compound": "CN1CCN(Cc2ccc(OCCCN3CCN(c4cccc5sccc45)CC3)cc2)CC1", "target": "Htr1a", "assay": "cell-free assay, radioligand", "Ki [nM]": 109}
{"Compound": "CC[C@H](C)[C@H](NC(=O)[C@H](CCC(N)=O)NC(=O)[C@H](CCC(=O)O)NC(=O)[C@H](CCC(=O)O)NC(=O)[C@H](CCCCN)NC(=O)[C@@H]1CCCN1C(=O)[C@H](CC(C)C)NC(=O)[C@H](CO)NC(=O)[C@H](CO)NC(=O)[C@H](CC(C)C)NC(=O)[C@@H](NC(=O)[C@H](C)NC(=O)[C@H](CO)NC(=O)[C@H](CCCNC(=N)N)NC(=O)CNC(=O)CNC(=O)[C@@H](N)CCCNC(=N)N)C(C)C)C(=O)NCC(N)=O", "target": "MC4R (Homo sapiens, UniProt P32245)", "test system": "HEK-293T transfected", "conditions": "2 h, 37 °C, together with: Eu-NDP-MSH", "Ki [nM]": "> 5000"}
